Measured values gathered from unrelated publications.
Every numbered part comes from another study and shows a few of its results, in no order. Values joined by “and” are separate records of one study, mostly repeats; a detail may differ. Numbers after ± are the reported error. ≈ marks a conversion by molar mass, not a printed value.

Block 1
Organism: SARS-CoV-2 Wuhan spike VSV pseudovirus
Read-out: pseudovirus entry
Concentration: 10 µM
`OC(Cc1ccccc1)c1ccc2c(c1)CN(Cc1ccc3ccccc3n1)CCO2` (stereo not drawn) has an inhibition of 89%.
With `Cn1nccc1C(=O)N1C[C@@H](COCC2CC2)[C@H](c2ccncc2)C1` the inhibition was 55%.
The inhibition of `O=C(NCC1C[C@H]2C=C[C@H]1C21CC1)c1coc(CN2CCN(Cc3ccccc3)CC2)n1` (stereo partly drawn) is reported as 83%.
`C=CC(=O)N1CC(=Cc2ccc([N+](=O)[O-])cc2)C(=O)/C(=C/c2ccc([N+](=O)[O-])cc2)C1` has an inhibition of 100%.
`COc1ccc(NC(=O)N2CCCC(CNC(=O)c3cccs3)C2)c(C)c1` (stereo not drawn) has an inhibition of 62%.
`Cn1c(CC2CCNCC2)nnc1SCc1cc(F)ccc1Cl` has an inhibition of 100%.
The inhibition of `CCOC(=O)N1CCN(C2CCCN(C(=O)c3cc(C)nc(C)n3)C2)CC1` (stereo not drawn) is reported as 68%.
With `C[C@@H]1O[C@@H](O[C@H]2C[C@@H](O)[C@]3(CO)[C@H]4[C@H](O)C[C@]5(C)[C@@H](C6=CC(=O)OC6)CC[C@]5(O)[C@@H]4CC[C@]3(O)C2)[C@H](O)[C@H](O)[C@H]1O` the inhibition was 58%.
For `CN(C)S(=O)(=O)c1cccc(Cn2ncc(Cl)c(Cl)c2=O)c1`, the inhibition was 100%.
`COc1ccc(CCNC(=O)Cn2ncc(Br)c(Br)c2=O)cc1` has an inhibition of 88%.
With `COc1cccc(Cl)c1-c1csc(C(N)=O)c1` the inhibition was 100%.
With `CCc1c(C)c(C#N)c2[nH]c3ccccc3n2c1=O` the inhibition was 83%.
`CCc1c(O)cc(O)c(C(=O)c2ccc(OCCN3CCOCC3)c(OC)c2)c1CC(=O)N(CCOC)CCOC` gave an inhibition of 93%.
For `COc1cc(NC(=O)CN2C[C@@H](C)O[C@@H](C)C2)ccc1NC(=O)CC(C)C`, the inhibition was 100%.
With `O=C(Cn1ncc(Cl)c(Cl)c1=O)NC1CCCCC1` the inhibition was 96%.
`Cc1cnc(C)c(-c2cc(O)c3c(c2)CN(C(=O)C2CCOCC2)CCO3)n1` gave an inhibition of 100%.
The inhibition of `O=C(Cc1ccc2c(c1)OCCO2)Nc1ccc(-c2nccs2)cc1` is reported as 70%.
For `CCCCCNC(=O)c1ccc(Oc2nccnc2N2CCC(C)CC2)cc1`, the inhibition was 87%.
`CCOCC(=O)N1CC(F)(F)C[C@H]1c1nc(C(=O)NC)no1` has an inhibition of 79%.
`CC(C)CN1CCOC(CNC(=O)Cn2ncc(Br)c(Br)c2=O)C1` (stereo not drawn) has an inhibition of 75%.
`Cc1nc(C(=O)N2CCC3(CCCN(CC4CCC4)C3=O)C2)cs1` (stereo not drawn) gave an inhibition of 79%.
For `Cc1cc(SC(C)C(=O)NC2CCS(=O)(=O)C2)nc2ccccc12` (stereo not drawn), the inhibition was 99%.
For `Cc1cccc(-c2nccc(Nc3ccc(C(=O)N4CCN(Cc5ccccc5)CC4)cc3)n2)c1`, the inhibition was 56%.
`CCn1nc(C)c(CNC(=O)C2CCC(=O)N(CCc3ccccn3)C2)c1C` (stereo not drawn) has an inhibition of 68%.

Other studies, line by line
Replicase polyprotein 1a P3395H main protease: Replicase polyprotein 1a, main protease (Severe acute respiratory syndrome coronavirus 2, UniProt P0DTC1, P3395H)
rep main protease: Replicase polyprotein 1ab, main protease (rep, Severe acute respiratory syndrome coronavirus 2, UniProt P0DTD1)
For `CC(C)[C@H](NC(=O)[C@H](CCCNC(=N)N)NC(=O)N[C@@H](Cc1ccccc1)C(=O)O)C(=O)N[C@H](C=O)CCCNC(=N)N`, the EC50 was over 50000 nM (Severe acute respiratory syndrome coronavirus 2; viral entry, inhibitor; A549-hACE2-TMPRSS2; pseudovirus).
The MIC of `Oc1cc(Cl)ccc1Oc1ccc(Cl)cc1Cl` is reported as 25 µg/mL (≈ 86.3 µM) (Mycobacterium tuberculosis; V2475).
For `O=c1c2ccccc2[se]n1-c1ccccc1`, the EC50 was 80 ± 10 nM (SARS-CoV-2 Wuhan-Hu-1; Vero C1008; 24 h).
With `CC(C)(C)[C@H](NC(=O)C(F)(F)F)C(=O)N1C[C@H]2[C@@H]([C@H]1C(=O)N[C@H](C#N)C[C@@H]1CCNC1=O)C2(C)C` the EC50 was 68 nM (SARS-CoV-2; viral replication; A549, delta variant hCoV-19/USA/MD-HP05647/2021; 72 h).
For `Cn1cnc(Cn2c(=O)[nH]/c(=N\c3cc4cn(C)nc4cc3Cl)n(Cc3cc(F)c(F)cc3F)c2=O)n1`, “thermal shift (ΔTm)” read 14.2 °C (Replicase polyprotein 1a P3395H main protease; binding; SARS-CoV-2; concentration not given).
The EC50 of `CN(C)c1ccc(N(Cc2cc(Cl)cs2)C(=O)Cc2cncc3cccc(O)c23)cc1` is reported as 30 to 50 nM (SARS-CoV-2; viral replication; BQ.1.1 and XBB.1.5; two human cell lines).
`COc1ccc(-c2cc(=O)c3c(OC)c(O)c(O)cc3o2)cc1` gave an inhibition of 79.9% (rep main protease; protease activity, inhibitor, FRET; 50 µM).
For `O=c1[nH]cnc2c([C@@H]3N[C@H](CO)[C@@H](O)[C@H]3O)c[nH]c12`, the EC50 was about 650 nM (SARS-CoV-2; infectious virus yield; Vero C1008, Omicron BA.1; 48 h).
The EC50 of `C=C(C)[C@@H]1CC[C@]2(C(=O)O)CC[C@]3(C)[C@H](CC[C@@H]4[C@@]5(C)CC[C@H](O)C(C)(C)[C@@H]5CC[C@]43C)[C@@H]12` is reported as over 20000 nM (SARS-CoV-2 Wuhan-Hu-1; Vero C1008; 24 h).
`CC(C)(C)[C@H](NC(=O)C(F)(F)F)C(=O)N1C[C@H]2[C@@H]([C@H]1C(=O)N[C@H](C#N)C[C@@H]1CCNC1=O)C2(C)C` — result for “thermal shift (ΔTm)”: 18.6 °C (Replicase polyprotein 1a P3395H main protease; binding; SARS-CoV-2; concentration not given).
`COc1ccc(-c2cc(=O)c3c(O)c(OC)c(OC)cc3o2)cc1` gave an inhibition of -29.8% (rep main protease; protease activity, inhibitor, FRET; 50 µM).
The EC50 of `N#C[C@@]1(c2ccc3c(N)ncnn23)O[C@H](CO)[C@@H](O)[C@H]1O` is reported as 490 nM (SARS-CoV-2; viral replication; Omicron BA.1; 24 h).
`CC(C)=CCNc1ncnc2c1ncn2[C@@H]1O[C@H](CO)[C@@H](O)[C@H]1O` gave an EC50 of 420 ± 20 nM (SARS-CoV-2; viral RNA copies; Vero C1008, Omicron BA.1; 48 h).
For `C[C@@H]1O[C@@H](O[C@H]2[C@H](OC(=O)[C@]34CCC(C)(C)C[C@H]3C3=CC[C@@H]5[C@@]6(C)C[C@H](O)[C@H](O[C@@H]7O[C@H](CO)[C@@H](O)[C@H](O)[C@H]7O)C(CO)(CO)[C@@H]6CC[C@@]5(C)[C@]3(C)C[C@H]4O)OC[C@H](O)[C@@H]2O)[C@H](O)[C@H](O)[C@H]1O[C@@H]1OC[C@@H](O)[C@H](O[C@@H]2OC[C@](O)(CO)[C@H]2O)[C@H]1O`, the IC50 was 1340 nM (SARS-CoV-2; pseudovirus entry; H1299 ACE2/TMPRSS2+).
`N#C[C@@]1(n2ccc(N)nc2=O)O[C@H](CO)[C@@H](O)[C@H]1O` has an EC90 of 4600 ± 200 nM (SARS-CoV-2; viral replication; Calu-3, Gamma).
The EC50 of `C[C@@H](OC(C)(C)C)[C@H](NC(=O)OCc1ccccc1)C(=O)N[C@@H](CC1CCCCC1)C(=O)NN(CCC(N)=O)C(=O)C(Cl)Cl` is reported as 10 nM (SARS-CoV-2; viral replication; delta variant hCoV-19/USA/MD-HP05647/2021).
For `CC(C)(C)[C@H](NC(=O)C(F)(F)F)C(=O)N1C[C@H]2[C@@H]([C@H]1C(=O)N[C@H](C#N)C[C@@H]1CCNC1=O)C2(C)C`, the EC50 was 20 nM (SARS-CoV-2; viral replication, replicon; S6799A Mpro cleavage-site mutant).
For `Cc1cc(C(=O)N[C@@H](Cc2cccc3ccccc23)C(=O)N[C@@H](CC(C)C)C(=O)N[C@H](C=O)C[C@@H]2CCCNC2=O)no1`, “EC50 fold change” read 0.15 ± 0.02 (SARS-CoV-2; viral replication; Omicron BA.1 T21I/E166V replicon; relative to: BA.1 wild type).
With `CCC(CC)[C@H](NC(C)=O)[C@@H]1[C@H](O)[C@@H](C(=O)O)C[C@H]1N=C(N)N` the IC50 was 7.2 ± 0.8 nM (neuraminidase (Influenza B virus, UniProt A0A1S5RAG6, G145E)).
The IC50 of `C=CCn1c(CSc2ccccc2[N+](=O)[O-])n[nH]c1=S` is reported as 610 ± 220 nM (Replicase polyprotein 1ab, nsp13 R392C (rep, Severe acute respiratory syndrome coronavirus 2, UniProt P0DTD1, R5716C); enzyme activity, inhibitor).
For `CCCCCCCC/C=C\CCCCCCCC(=O)O[C@H](COC(=O)CCCCCCCCCCCCCCC)COP(=O)(O)OC[C@H](N)C(=O)O`, the Kd was 400 ± 20 nM (Nucleoprotein (Severe acute respiratory syndrome coronavirus 2, UniProt P0DTC9); membrane binding, surface plasmon resonance; SARS-CoV-2).
Under “viral RNA level”, `Nc1ncnc2c1ncn2[C@@H]1O[C@H](CO)C[C@H]1O` is recorded as 0.285 and 0.261 and 0.277 (SARS-CoV-2 Omicron; Huh-7; concentration not given, 3 h, unit not given; relative to: DMSO).
For `CCC(CC)COC(=O)[C@H](C)N[P@](=O)(OC[C@H]1O[C@@](C#N)(c2ccc3c(N)ncnn23)[C@H](O)[C@@H]1O)Oc1ccccc1`, the EC90 was 1000 ± 700 nM (SARS-CoV-2; viral replication; Vero, Alpha).
The EC50 of `CCC(CC)COC(=O)[C@H](C)N[P@](=O)(OC[C@H]1O[C@@](C#N)(c2ccc3c(N)ncnn23)[C@H](O)[C@@H]1O)Oc1ccccc1` is reported as 0.3 nM (SARS-CoV-2; viral replication; Omicron BA.1; 24 h).

Excerpt of the above (other studies, line by line):
For `CC(C)(C)[C@H](NC(=O)C(F)(F)F)C(=O)N1C[C@H]2[C@@H]([C@H]1C(=O)N[C@H](C#N)C[C@@H]1CCNC1=O)C2(C)C`, the EC50 was 20 nM (SARS-CoV-2; viral replication, replicon; S6799A Mpro cleavage-site mutant).
For `Cc1cc(C(=O)N[C@@H](Cc2cccc3ccccc23)C(=O)N[C@@H](CC(C)C)C(=O)N[C@H](C=O)C[C@@H]2CCCNC2=O)no1`, “EC50 fold change” read 0.15 ± 0.02 (SARS-CoV-2; viral replication; Omicron BA.1 T21I/E166V replicon; relative to: BA.1 wild type).
With `CCC(CC)[C@H](NC(C)=O)[C@@H]1[C@H](O)[C@@H](C(=O)O)C[C@H]1N=C(N)N` the IC50 was 7.2 ± 0.8 nM (neuraminidase (Influenza B virus, UniProt A0A1S5RAG6, G145E)).
The IC50 of `C=CCn1c(CSc2ccccc2[N+](=O)[O-])n[nH]c1=S` is reported as 610 ± 220 nM (Replicase polyprotein 1ab, nsp13 R392C (rep, Severe acute respiratory syndrome coronavirus 2, UniProt P0DTD1, R5716C); enzyme activity, inhibitor).
For `CCCCCCCC/C=C\CCCCCCCC(=O)O[C@H](COC(=O)CCCCCCCCCCCCCCC)COP(=O)(O)OC[C@H](N)C(=O)O`, the Kd was 400 ± 20 nM (Nucleoprotein (Severe acute respiratory syndrome coronavirus 2, UniProt P0DTC9); membrane binding, surface plasmon resonance; SARS-CoV-2).
Under “viral RNA level”, `Nc1ncnc2c1ncn2[C@@H]1O[C@H](CO)C[C@H]1O` is recorded as 0.285 and 0.261 and 0.277 (SARS-CoV-2 Omicron; Huh-7; concentration not given, 3 h, unit not given; relative to: DMSO).
